# Experimental data collected from several papers.
# Every numbered part comes from another study and shows a few of its results, in no order.

# Set 1 — cell line: HEK-293T-ACE2; concentration: concentration not given; relative to: vehicle
SMILES,cell number
CC(C)(C)c1cc(C(C)(C)C)c(NC(=O)c2c[nH]c3ccccc3c2=O)cc1O,97.9%
CN[C@H]1C(=O)N[C@@H]2Cc3ccc(cc3)Oc3cc4cc(c3O[C@@H]3O[C@H](C(=O)O)[C@@H](O)[C@H](O)[C@H]3NC(=O)CCCCCCCCC(C)C)Oc3ccc(cc3Cl)[C@@H](O)[C@@H]3NC(=O)[C@H](NC(=O)[C@@H]4NC(=O)[C@@H](NC2=O)c2cc(cc(O)c2Cl)Oc2cc1ccc2O)c1ccc(O)c(c1)-c1c(O[C@H]2O[C@H](CO)[C@@H](O)[C@H](O)[C@@H]2O)cc(O)cc1[C@@H](C(=O)O)NC3=O,95.8%
CC[C@H](Nc1ncnc2[nH]cnc12)c1nc2cccc(F)c2c(=O)n1-c1ccccc1,101%

# Set 2 — technique: universal PBM; form: double-stranded DNA, one strand shown; sample: in vitro; concentration: not given; reading: higher = stronger binding
# Target: Sal-like protein 4, full length isoform B (SALL4, Homo sapiens, UniProt Q9UJQ4-2, residues 1-616)
# Notes: 8-mer, flanks averaged, mean of replicates
# Construct (chain): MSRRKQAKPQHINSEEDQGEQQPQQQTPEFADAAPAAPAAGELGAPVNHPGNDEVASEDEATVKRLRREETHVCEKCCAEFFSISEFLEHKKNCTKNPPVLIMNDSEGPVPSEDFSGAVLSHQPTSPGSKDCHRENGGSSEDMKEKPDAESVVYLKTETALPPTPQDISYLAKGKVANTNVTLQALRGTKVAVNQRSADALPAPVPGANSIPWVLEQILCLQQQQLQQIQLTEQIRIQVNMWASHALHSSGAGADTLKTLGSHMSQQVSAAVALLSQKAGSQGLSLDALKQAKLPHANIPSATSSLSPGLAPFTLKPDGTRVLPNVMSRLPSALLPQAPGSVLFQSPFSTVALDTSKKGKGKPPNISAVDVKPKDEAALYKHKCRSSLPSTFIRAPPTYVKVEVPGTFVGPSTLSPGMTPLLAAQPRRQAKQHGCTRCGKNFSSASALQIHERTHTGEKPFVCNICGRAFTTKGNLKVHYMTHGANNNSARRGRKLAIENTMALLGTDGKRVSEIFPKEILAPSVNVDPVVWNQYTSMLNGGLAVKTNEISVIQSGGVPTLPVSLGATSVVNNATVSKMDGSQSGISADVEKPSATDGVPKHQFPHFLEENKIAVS
Strand,E-score
AAACATTG,0.198
CGTAGACG,-0.213
CCGGGAGA,-0.185
CCTACACA,0.0572
ATTCGCCG,-0.0881
CACAGTGC,-0.317
GTACGAAC,0.185
AAACTGCG,-0.124

# Set 3 — technique: RNA Bind-n-Seq; form: RNA; sample: in vitro; concentration: 365 nM; relative to: no-protein control; reading: higher = stronger binding
# Target: RNA binding protein fox-1 homolog 2, RRM domain, GST-SBP tag (RBFOX2, Homo sapiens, UniProt O43251-10, residues 100-194)
# Notes: natural RNA segment, single round, ends assumed
# Shared flanks, not repeated: GGGAGUUCUACAGUCCGACGAUC … UGGAAUUCUCGGGUGCCAA
Strand,RBNS enrichment (R)
UGAGACCAAAAUUUCAGAGCCCUUGAGGUGCAGAGAGCAGAGCCGUCCAAUGAUUUCAACCCUGCAGAGCACCCCGACAAUCCUGAGGCUGCAUCGGGAGCUAGAGCCAG,0.696
CUGGAAAGUAGAGGGAACCGGCACUGCUCAGAGCAGAUGGCGGCUUCUGGAGGCACACAGUGGGAGUACACCCCUUCAUGUUAUUGGCCAGUUGCUGGAGAAUGCUGUAG,0.403
AUUUGGUUCAUAUCUUGUGUAUUGGUGCAUAAAAGAAAAAAAAACAGUGUUUUUACGUUUUCAGUUUAAAGGACAAAGGGCGUGCUCUCUCAGUUUGCUGUAAGAUUGUA,0.384
ACAUCUCUUCCCUCCAUCUCCUUGUACCCUCUGGCUUACUGUCCUCUCUCUGGCGCACUUUCCUGAAGCCUCUUAUUAACUCCCAUCUCCAGAAGCACCUCAACAAUGUC,1.19
UUUACUGGAGUUCAUUGGUCAGUGCACAGUGCAGCCACAGGACUGACCGUCGUAGGCUUCCAUUUUUCCCAUCACCCACUGUAAAGGCUCAGAGUUGAACUACCACUGUG,0.373

# Set 4 — read-out: enzyme activity; action: inhibitor; concentration: 20 µM
# Target: Replicase polyprotein 1ab, polymerase (rep, Severe acute respiratory syndrome coronavirus 2, UniProt P0DTD1)
SMILES,inhibition [%]
CC(C)C[C@H](NC(=O)CNC(=O)c1cc(Cl)ccc1Cl)B1OC(=O)CC(CC(=O)O)(C(=O)O)O1 (some centres unmarked),-2.9
CCc1noc(C)c1-c1[nH]c2ccccc2c1C(O)CN(C)C (centres unmarked),-0.31
Nc1nc2c(nc(Br)n2[C@@H]2O[C@@H]3COP(=O)(O)O[C@H]3[C@H]2O)c(=O)[nH]1,0.85
O=C1NC(c2ccccc2)(c2ccccc2)C(=O)N1COP(=O)(O)O,-4.69
CC[C@H](C)[C@H](NC(=O)[C@H](Cc1ccc(O)cc1)NC(=O)[C@@H](NC(=O)[C@H](CCCNC(=N)N)NC(=O)[C@@H](N)CC(=O)O)C(C)C)C(=O)N[C@@H](Cc1cnc[nH]1)C(=O)N1CCC[C@H]1C(=O)N[C@@H](Cc1ccccc1)C(=O)O,-0.04
O=C(Nc1c(Cl)cncc1Cl)c1ccc(OC(F)F)c(OCC2CC2)c1,-2.14
CC(=O)N[C@@H]1[C@@H](O)[C@H](O)[C@@H](CO)O[C@@H]1O,-1.81
NC(=NCCCCCCN=C(N)/N=C(\N)Nc1ccc(Cl)cc1)/N=C(\N)Nc1ccc(Cl)cc1,23
CC(=O)SC[C@@H](C)C(=O)N1CCC[C@H]1C(=O)N[C@@H](Cc1ccccc1)C(=O)O,1.56
FCc1ccc(OCCOc2ccc(Cl)cc2Cl)c(Cl)n1,-1.27
Oc1cc(O)c2c(c1)O[C@H](c1ccc(O)c(O)c1)[C@H](O)[C@H]2c1c(O)cc(O)c2c1O[C@H](c1ccc(O)c(O)c1)[C@H](O)C2,48.7
CN(C)C(=O)COC(=O)Cc1ccc(OC(=O)c2ccc(NC(=N)N)cc2)cc1,2.32
C=C[C@]1(C)C[C@@H](OC(=O)CSC(C)(C)CNC(=O)[C@H](N)C(C)C)[C@]2(C)[C@H](C)CC[C@]3(CCC(=O)[C@H]32)[C@@H](C)[C@@H]1O,-3.37
Cc1ccc(S(=O)(=O)/C=C/C#N)cc1,0.25
COc1ccc(C(=O)c2ccccc2)c(O)c1,17.2
CCCCC(CC)CCC(CC(C)C)OS(=O)(=O)O (centres unmarked),8.48
CN1CCC[C@H]1c1cccnc1,5.14
COc1cccc([C@H](O)C2CCN(CCc3ccc(F)cc3)CC2)c1OC,2.52
CNC(C)(C)Cc1ccccc1,-4.94
O=C(O)c1cccnc1,16.6
CCOC(=O)[C@H](Cc1ccc([N+](=O)[O-])cc1)NC(=O)c1ccccc1,-1.18
COCCNC(=O)COc1ccc(OCCNC[C@H](O)COc2ccccc2)cc1,-3.01
CC(C)=CCC/C(C)=C/CC/C(C)=C/C=C/C(C)=C/C(=O)O,2.35
Cc1ccc(C(=O)Nc2ccc(CN3CCN(C)CC3)c(C(F)(F)F)c2)cc1C#Cc1cnc2[nH]ncc2c1,-6.66
O=[N+]([O-])c1cn2c(n1)OC[C@@H](OCc1ccc(OC(F)(F)F)cc1)C2,1.84

# Set 5 — technique: protein-binding microarray; form: double-stranded DNA, one strand shown; sample: in vitro; concentration: 2200 nM top; notes: 60-bp whole probe; with: salmon DNA 0.4 mg/ml; relative to: random background probes; reading: higher = stronger binding; shared flanks, not repeated: GCCTAGCAC … GTCTTGATTCGCTTGACGCTGCTG
# Target: Interferon regulatory factor 7, full length, phosphomimetic (IRF7, Homo sapiens, UniProt Q92985, residues 1-503, S471D/S472D/S475D/S476D/S477D/S483D/S484D/S487D)
# Chain of UniProt Q92985 (whole entry, unmodified, looked up): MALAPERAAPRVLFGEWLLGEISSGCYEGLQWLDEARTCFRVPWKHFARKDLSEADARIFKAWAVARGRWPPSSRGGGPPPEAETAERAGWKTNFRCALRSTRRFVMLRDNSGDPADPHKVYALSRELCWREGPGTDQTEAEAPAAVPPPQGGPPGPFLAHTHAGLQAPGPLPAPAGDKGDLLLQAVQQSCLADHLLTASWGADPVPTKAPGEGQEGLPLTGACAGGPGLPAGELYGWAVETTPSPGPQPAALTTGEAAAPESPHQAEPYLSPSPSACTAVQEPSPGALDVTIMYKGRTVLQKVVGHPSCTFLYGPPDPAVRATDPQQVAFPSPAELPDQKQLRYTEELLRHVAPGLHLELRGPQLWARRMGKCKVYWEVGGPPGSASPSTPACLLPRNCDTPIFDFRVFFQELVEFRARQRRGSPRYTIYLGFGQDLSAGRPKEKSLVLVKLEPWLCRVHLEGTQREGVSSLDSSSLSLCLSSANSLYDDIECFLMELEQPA
Strand,fitted relative affinity [z-score]
CCGTGTTTCTCAAATGTTTTGGTGCTA,2.12
GACGGTCTCCTACTGCAGACGTGCTAG,0.358
TTAGATATCAGTTTCGTTTAGTGCTAG,6.59
TCAAGGTCCCTTTTCATACTGTGCTAG,1.28
GGCGGACTGGGTATCGGGACGTGCTAG,-1.48
TTAGCTTTCGGTCTCGGTTAGTGCTAG,6.75
TTGGGTTTCGGTATCGGTTAGTGCTAG,6.49
GACGTTTTCAGTTCCGAGACGTGCTAG,3.51

# Set 6 — read-out: enzyme activity; action: inhibitor; concentration: 10 µM
# Target: Replicase polyprotein 1ab, 3C-like proteinase (rep, Middle East respiratory syndrome-related coronavirus, UniProt K9N7C7)
Structure (SMILES),inhibition [%]
[O-][S+](c1ccccc1)c1ccc2nnnn2n1 (centres unmarked),49.5
Oc1cc(CNC(=S)/C=C/c2cc(O)c(O)c(Br)c2)cc(O)c1O,20
Nc1nnc(Sc2ncc([N+](=O)[O-])s2)s1,45
N#CSc1cc(SC#N)c(N)nc1N,100
Oc1ccc2ccccc2c1SSc1c(O)ccc2ccccc12,6
COC(=O)/C=C/c1cc(O)ccc1O,40
CC(C)Nc1cccnc1N1CCN(C(=O)c2cc3cc(NS(C)(=O)=O)ccc3[nH]2)CC1,34
